Literature values as cited in several papers.
Protocols differ between the studies behind these lines. Positions of bridges follow the written chain, without caps; N, C: chain ends. Ends that are not written are not given here. No end group written: not given here.
B1: CCL4; sequence looked up; chain APMGSDPPTACCFSYTARKLPRNFVVDYYETSSLCSQPAVVFQTKRSKQVCADPSESWVQEYVYDLELN
Chain of UniProt P06241 (whole entry, looked up): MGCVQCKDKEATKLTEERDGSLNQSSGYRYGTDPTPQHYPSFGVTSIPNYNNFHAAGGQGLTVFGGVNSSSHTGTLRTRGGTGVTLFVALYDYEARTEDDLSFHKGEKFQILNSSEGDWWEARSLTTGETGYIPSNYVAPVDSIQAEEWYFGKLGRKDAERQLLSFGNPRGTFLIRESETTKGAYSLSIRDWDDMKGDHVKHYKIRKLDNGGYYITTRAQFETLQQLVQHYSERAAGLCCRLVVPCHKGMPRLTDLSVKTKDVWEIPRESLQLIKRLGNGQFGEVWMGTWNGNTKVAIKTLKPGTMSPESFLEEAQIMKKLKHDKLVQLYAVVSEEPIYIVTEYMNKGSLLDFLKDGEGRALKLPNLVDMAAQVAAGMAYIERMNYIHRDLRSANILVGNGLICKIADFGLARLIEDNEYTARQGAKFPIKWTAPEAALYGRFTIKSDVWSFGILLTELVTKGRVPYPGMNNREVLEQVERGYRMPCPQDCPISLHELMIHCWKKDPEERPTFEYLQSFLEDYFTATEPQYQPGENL

B1 (CCL4)  Kd (US28 T12A; binding, radioligand competition): 5.7 nM
melittin  MIC (Staphylococcus aureus; ATCC 25923; literature value): ≤ 1.6 µM
CCL3  Kd (US28 D15A; binding, radioligand competition): 1.4 nM
TVLICMNICWTGETQ (disulfide 5-9 (inferred)) (disulfide)  Kd (streptavidin; binding, bacterial display flow cytometry): 4 nM
ubiquitin  Kd (Tumor susceptibility gene 101 protein, UEV domain (Homo sapiens, UniProt Q99816); binding): 500000 to 800000 nM
ICSYVMYTTCFLRVY (disulfide 2-10 (inferred)) (disulfide)  Kd (streptavidin; binding, bacterial display flow cytometry): 8 nM
PVDPFEAQWAALENK  Kd (MDM2 SWIB domain; binding; peptide): 3300 nM
Ac-MDRWLVKWKKKRKIRRRRRRRRRR (N-acetyl)  Kd (PCNA; binding): 1340 nM
enfortumab vedotin  half-life (monkey): 41 h
KSRPPRPPPKPLHLR  Kd (Abp1 SH3 domain (Saccharomyces cerevisiae); binding; peptide): 210 nM
tixagevimab  Kd (SARS-CoV-2 spike protein; binding): 0.0028 nM
LPRTQPDGTSVP  Kd (human tankyrase-2 ARC4 domain; binding; peptide): 17200 nM
Ac-APPIPPPRRKR-NH2 (N-acetyl, C-amide)  Kd (Tyrosine-protein kinase Fyn, SH3 domain (FYN, Homo sapiens, UniProt P06241); binding; peptide): 620 nM
buforin II  MIC (Salmonella typhimurium; SL1344): > 100 µM
pegcetacoplan  tolerability (rabbit; subcutaneous, 7, 28, 140 mg/kg/day daily, 28 days): not toxic

Some of these lines once more:
melittin  MIC (Staphylococcus aureus; ATCC 25923; literature value): ≤ 1.6 µM
